Published values collected from several papers.
A part holds a random share of what one study measured.

Series 1
Target: Fragile X messenger ribonucleoprotein 1, C-terminal low-complexity region (Fmr1, Mus musculus, UniProt P35922)
Method: RNA Bind-n-Seq
Molecule type: RNA
Matrix: in vitro
Concentration: 200 nM
Notes: whole 134-nt RNA, ends assumed
Added: 150 mM KCl
Reference: input library
Direction: higher = stronger binding
Measurement: log2 enrichment
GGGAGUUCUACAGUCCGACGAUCAAGUCCUGUGCUACACAUCGUAUGUACCGAAUCGGUUUUUGGUUUUUGGAAAAAGGAAAGUAUUAUGUUACGCCGUUCGGAUCUGCACUUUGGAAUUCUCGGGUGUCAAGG: -1.04
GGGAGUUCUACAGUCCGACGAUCGCAGGAAGUAAAAACAAAUGGAAAUGCUUCGGAUAGUGGCAGGGGUGGGGGUUGCUAAGGAAAGGGUGGGAUGGGAGCGGGUAAAGAGUUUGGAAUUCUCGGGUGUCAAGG: 0.0468
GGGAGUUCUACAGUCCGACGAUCCCUCAAGUCCUGUGCUACACAUCGUAUGUACCGAAUCGGAGGUUUGGUUUGGAAAGUAUUAUGUUACGCCGUUCGGAUCUGCACUUCCAGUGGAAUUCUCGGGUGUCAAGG: -0.0314
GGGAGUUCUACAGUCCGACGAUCUCCUGUGCUACACAUCGUAUGUACCGAAUCGGGCCCCCCGGGCCCCCCGGGGCCCCCCGGAAAGUAUUAUGUUACGCCGUUCGGAUCUGCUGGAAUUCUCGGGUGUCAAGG: -0.46
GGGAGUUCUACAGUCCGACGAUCCUGUGCUACACAUCGUAUGUACCGAAUCGGCCCCCCCGGGCCCCCCCGGGCCCCCCCGGGGAAAGUAUUAUGUUACGCCGUUCGGAUCUGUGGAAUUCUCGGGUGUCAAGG: -1.08
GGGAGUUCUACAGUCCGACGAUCCUCAAGUCCUGUGCUACACAUCGUAUGUACCGAAUCGGGGAAGGGAAGGAAGGAAAGUAUUAUGUUACGCCGUUCGGAUCUGCACUUCCAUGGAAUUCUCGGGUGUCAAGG: 0.059

Series 2
Target: Interferon regulatory factor 5, full length, phosphomimetic (IRF5, Homo sapiens, UniProt Q13568-2, residues 1-514, K96S/S451D/S453D/S456D/S462D)
Method: protein-binding microarray
Molecule type: double-stranded DNA, one strand shown
Matrix: in vitro
Concentration: 250 nM
Notes: 60-bp whole probe
Added: salmon DNA 0.4 mg/ml
Reference: random background probes
Direction: higher = stronger binding
Measurement: log fluorescence
All sequences stand within: GCCTAGCAC … GTCTTGATTCGCTTGACGCTGCTG
TCAATTTTCCCTCCCTAACTGTGCTAG: 0.885 z-score
TTAGAACTGGGATATCGATTAGTGCTA: 1.23 z-score
TTAGGTCACCTACTGCTTTAGTGCTAG: -0.229 z-score
TTCATTATTGCTTCCTCTTTGTGCTAG: 1.35 z-score
GCCTTTTATTTGAAAGAAATGTGCTAG: 0.611 z-score

Series 3
Target: Histone acetyltransferase KAT6A, winged helix 2, GST fusion (KAT6A, Homo sapiens, UniProt Q92794, residues 85-181)
Method: protein binding microarray
Molecule type: double-stranded DNA, one strand shown
Matrix: in vitro
Concentration: not given
Notes: 8-mer, flanks averaged, mean of 2 arrays, mostly near background
Reference: not given
Direction: higher = stronger binding
Measurement: E-score
Residues (chain): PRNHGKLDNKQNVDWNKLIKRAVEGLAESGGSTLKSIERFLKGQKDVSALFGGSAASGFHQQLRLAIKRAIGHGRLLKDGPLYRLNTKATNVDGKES
AACTGCCA: -0.0654
CGAAAGTA: -0.153
AATCGGAC: -0.0313
CCTGGCAA: 0.0389
CTCTTGAA: 0.0443
ACAGCGGC: 0.02

Further values, each from its own experiment
PhoQ, residues 284 288 289 292 302 303 DDMDFR — fold induction (PhoP, residues 12 14 15 18 19 STWGI (Escherichia coli, UniProt P23836); Sort-seq, refers to: YFP reporter; E. coli; PhoQ-PhoP variant library, added: 10 µM Mg2+; reference: high Mg2+ state, higher = stronger signaling): 0.845

For quick reference, copied from above (series 3):
AATCGGAC: -0.0313
